Measurements collected from several papers.
Lines come from different studies, so protocols differ. Values joined by “and” are separate records of one study, mostly repeats; a detail may differ. Numbers after ± are the reported error.

| SMILES | cell line | assay | system | conditions | how to read | measurement | value |
| --- | --- | --- | --- | --- | --- | --- | --- |
| CCOc1ccc(Cc2nc3cc(N(C)S(=O)(=O)c4cccs4)ccc3n2CC2CCCCC2)nc1 | HEK293T ATF4-FLuc reporter | ATF4 reporter gene, activator, luciferase reporter |  |  |  | EC50 | 7190 nM |
| CC(=O)O[C@H]1C[C@H](O[C@H]2[C@@H](O)C[C@H](O[C@H]3[C@@H](O)C[C@H](O[C@H]4CC[C@@]5(C)[C@H](CC[C@@H]6[C@@H]5C[C@@H](O)[C@]5(C)[C@@H](C7=CC(=O)OC7)CC[C@]65O)C4)O[C@@H]3C)O[C@@H]2C)O[C@H](C)[C@H]1O[C@@H]1O[C@H](CO)[C@@H](O)[C@H](O)[C@H]1O | human iPSC cardiomyocytes | plate-normalised |  | concentration not given, hit retest | reference: vehicle controls, SDs below control | MyBP-C level change | 12.9 SD |
| CC(C)N1CCC(NC2CCN(c3cccc(-c4cc5cc(F)ccc5[nH]4)c3)CC2)CC1 | OVCAR-5 |  |  |  |  | GI50 | 1830 nM |
| CC(C)(C)c1cc(C=C(C#N)C#N)cc(Br)c1O | hCMEC/D3 | outcome: decreased, Western blot, refers to: Erk |  | 100 µM, no insulin |  | phosphorylation | decreased |
| Cn1cc2cc(C(F)(F)c3nnc4ccc(-c5cnn(C6CC6)c5)nn34)c(F)cc2n1 | MKN-45 | western blot |  | concentration not given, 48 h |  | cleaved PARP level | increased |
| CCCC[C@@H]1NC(=O)[C@H](Cc2ccc(O)cc2)NC(=O)[C@@H]2CCCN2C(=O)[C@H](CC(=O)O)NC(=O)[C@H](C)NC(=O)[C@H](Cc2ccccc2)NC(=O)[C@@H]2CSCCC(=O)N3CN(CN(C3)C(=O)CCSC[C@@H](C(=O)N[C@@H](C)C(N)=O)NC1=O)C(=O)CCSC[C@H](NC(=O)[C@H](C)NC(C)=O)C(=O)N[C@@H]([C@@H](C)CC)C(=O)N[C@@H](CCC(=O)O)C(=O)N[C@@H](CCC(=O)O)C(=O)N[C@H](CCCCNC(=O)CCc1cn(CCOCCOCCOCCN(CCOCCOCCOCCC(=O)N[C@H]3CSCCC(=O)N4CN5CN(C4)C(=O)CCSC[C@H](NC(=O)[C@@H](CC(=O)O)NC(=O)[C@H](Cc4cccc6ccccc46)NC(=O)[C@@H]4CCCN4C3=O)C(=O)N[C@@H](CCSC)C(=O)N[C@@H](CCCCNC(=N)N)C(=O)N[C@@H](CC(=O)O)C(=O)N[C@@H](Cc3c[nH]c4ccccc34)C(=O)N[C@@H](CO)C(=O)N[C@@H]([C@@H](C)O)C(=O)N3CCC[C@H]3C(=O)N3C[C@H](O)C[C@H]3C(=O)N[C@@H](Cc3c[nH]c4ccccc34)C(=O)N[C@H](C(N)=O)CSCCC5=O)CCOCCOCCOCCn3cc(CCC(=O)NCCCC[C@H]4NC(=O)[C@H](CCC(=O)O)NC(=O)[C@H](CCC(=O)O)NC(=O)[C@H]([C@@H](C)CC)NC(=O)[C@@H](NC(=O)[C@H](C)NC(C)=O)CSCCC(=O)N5CN6CN(C5)C(=O)CCSC[C@H](NC(=O)[C@H](Cc5ccc(O)cc5)NC(=O)[C@H](CCC(N)=O)NC4=O)C(=O)N[C@@H](Cc4ccccc4)C(=O)N[C@@H](C)C(=O)N[C@@H](CC(=O)O)C(=O)N4CCC[C@H]4C(=O)N[C@@H](Cc4ccc(O)cc4)C(=O)N[C@@H](CCCC)C(=O)N[C@H](C(=O)N[C@@H](C)C(N)=O)CSCCC6=O)nn3)nn1)C(=O)N[C@@H](CCC(N)=O)C(=O)N[C@@H](Cc1ccc(O)cc1)C(=O)N2 | human PBMC with HT-1376 coculture | IL-2 secretion |  | with: anti-CD3 |  | EC50 | 0.83 ± 0.19 nM |
| CCN(CC)c1ccc(C=NNC(=O)CSc2nc3ccccc3c(=O)n2Cc2ccc(S(N)(=O)=O)cc2)c(O)c1 | OVCAR-4 | NCI five-dose screen |  |  |  | CC50 | > 100000 nM |
| COc1ccc2c(c1)[nH]c1c(C)nccc12 | DU-145 | bisulfite pyrosequencing, refers to: RASSF1A promoter CpG site 8 |  | 10 µM, 16 h |  | DNA methylation | 89.3% |
| O=C(N/N=C/c1ccc([N+](=O)[O-])o1)c1cc([N+](=O)[O-])cc([N+](=O)[O-])c1O | THP-1 | pyroptotic LDH release |  | 2 µM, 40 min, with: LPS then nigericin |  | inhibition | 8.67% |
| CC[C@H](C)[C@H](NC(=O)[C@H](C)NC(=O)CNC(=O)[C@H](Cc1ccccc1)NC(=O)[C@H](CC(N)=O)NC(=O)[C@H](CC(N)=O)NC(=O)[C@H](CO)NC(=O)[C@H](CO)NC(=O)[C@H](Cc1c[nH]cn1)NC(=O)[C@@H](NC(=O)[C@H](CC(C)C)NC(=O)[C@H](Cc1ccccc1)NC(=O)[C@H](CC(N)=O)NC(=O)[C@H](C)NC(=O)[C@H](CC(C)C)NC(=O)[C@H](CCCNC(=N)N)NC(=O)[C@H](CCC(N)=O)NC(=O)[C@@H](NC(=O)[C@H](C)NC(=O)[C@@H]1CSSC[C@H](NC(=O)[C@@H](N)CCCCN)C(=O)N[C@@H](CC(N)=O)C(=O)N[C@@H]([C@@H](C)O)C(=O)N[C@@H](C)C(=O)N[C@@H]([C@@H](C)O)C(=O)N1)[C@@H](C)O)C(C)C)C(=O)N[C@@H](CC(C)C)C(=O)N[C@@H](CO)C(=O)N[C@@H](CO)C(=O)N[C@H](C(=O)N[C@@H](CC(N)=O)C(=O)N[C@H](C(=O)NCC(=O)N[C@@H](CO)C(=O)N[C@@H](CC(N)=O)C(=O)N[C@H](C(=O)N[C@@H](Cc1ccc(O)cc1)C(N)=O)[C@@H](C)O)C(C)C)[C@@H](C)O | INS-1 | MTT |  | 1 µM, 24 h |  | viability | 53% |
| Cc1cc(C(C)(C)c2ccc(O)c(C)c2)ccc1O | HepG2 spheroids | Hoechst flow cytometry |  | 0.10 µM, 96 h |  | S phase cells | 8.02 ± 2.57% |
| Oc1ccc(Br)cc1 | THP-1 | pyroptotic LDH release |  | 2 µM, 40 min, with: LPS then nigericin |  | inhibition | -13.6% |
| COP(=O)(OC)OC=C(Cl)Cl | MDA-MB-231 BAX/BAK siRNA knockdown | CellTiter-Glo |  | concentration not given | reference: normalised luminescence | viability | 37.8% and 68.6% |
| Cn1cncc1C1=CN(c2ncnc3[nH]cnc23)CCS1 | Malme-3M |  |  | melanoma cell line |  | CC50 | > 200000 nM |
| O=S(=O)(c1ccc(O)cc1)c1ccc(O)cc1 | HepG2 spheroids | Hoechst flow cytometry |  | 10 µM, 24 h |  | G1 phase cells | 72.8 ± 4.03% |
| COc1cc(CCC[P+](c2ccccc2)(c2ccccc2)c2ccccc2)c(OC)c2c1OCO2.[I-] | OVCAR-5 | SRB |  |  |  | LC50 | > -4 log M |
| Cc1sc2c(c1C)C(c1ccc(Cl)cc1)=N[C@@H](CC(=O)OC(C)(C)C)c1nnc(C)n1-2 | iCas9-MOLM-13 sgGFP | RNA-seq, refers to: MYBPH |  | 50 nM, 24 h | reference: DMSO | log2 fold change | 0.168 |
| Nc1ncnc2c1ncn2[C@@H]1O[C@@H]2COP(=O)(O)O[C@H]3[C@@H](O)[C@H](n4cnc5c(=O)[nH]cnc54)O[C@@H]3COP(=O)(O)O[C@H]2[C@H]1O | HFF-1 | RNA sequencing, refers to: Reactome FOXO-mediated transcription |  | upregulated pathways | reference: mock | fold enrichment | 6.13 |

| SMILES | cell line | assay | system | conditions | how to read | measurement | value |
| --- | --- | --- | --- | --- | --- | --- | --- |
| Oc1ccc(C(c2ccc(O)cc2)(C(F)(F)F)C(F)(F)F)cc1 | HepG2 spheroids | Hoechst flow cytometry |  | 0.10 µM, 96 h |  | G1 phase cells | 70.7 ± 4.39% |
| Cc1cnc2ccc3c(nc(N)n3C)c2n1 | BALB/c 3T3 | colony formation |  | 5 µM |  | plating efficiency | 46% |
| Nc1ccc(Cl)cc1 | THP-1 | pyroptotic LDH release |  | 2 µM, 40 min, with: LPS then nigericin |  | inhibition | 15.6% |
| Oc1cc(Cl)ccc1Oc1ccc(Cl)cc1Cl | HepG2 | extracellular flux, refers to: reserve respiratory capacity |  | 24 h, representative mode |  | point of departure | 1.23 µM |
| Cn1c(COP(=O)(NCCBr)NCCBr)cnc1[N+](=O)[O-] | THP-1 | pyroptotic LDH release |  | 2 µM, 40 min, with: LPS then nigericin |  | inhibition | 46% |
| C[C@@H]1O[C@@H](O[C@@H]2C=C3CC[C@@H]4[C@H](CC[C@]5(C)[C@@H](c6ccc(=O)oc6)CC[C@]45O)[C@@]3(C)CC2)[C@H](O)[C@H](O)[C@H]1O | human iPSC cardiomyocytes | plate-normalised |  | concentration not given, hit retest | reference: vehicle controls, SDs below control | MyBP-C level change | 13 SD |
| CC(C)[C@H](N)C(=O)N1CCC[C@H]1B(O)O | Ker-CT keratinocytes, CASP1 knockout | inducer, ELISA |  | concentration not given |  | IL-1β release | 7.41 pg/mL |
| COc1c(CCC[P+](c2ccccc2)(c2ccccc2)c2ccccc2)cc2c(c1OC)OCO2.[I-] | KM12 | SRB |  |  |  | GI50 | -6.19 log M |
| CCCCCCCCC[C@@H]1CC(=O)NCC(=O)N[C@H](Cc2ccc(O)cc2)C(=O)NCC(=O)N[C@@H](Cc2ccccc2)C(=O)O1 | BV-2 mouse microglia | ELISA | culture supernatant | 5 µM, with: LPS |  | TNF-alpha level | decreased |
| CN1CCN(C2(CNC3CCN(c4cccc(-c5cc6cc(F)ccc6[nH]5)c4)CC3)CCC2)CC1 | COLO 205 |  |  |  |  | GI50 | 1130 nM |
| Oc1ccc(C2(c3ccc(O)cc3)c3ccccc3-c3ccccc32)cc1 | HepG2 spheroids | Hoechst flow cytometry |  | 0.01 µM, 96 h |  | G2 phase cells | 12.6 ± 4.07% |
| O=c1c(O)c(-c2ccc(O)c(O)c2)oc2cc(O)cc(O)c12 | SH-SY5Y Aβ-GFP cells | Aβ aggregation inhibition, GFP folding reporter |  |  |  | EC50 | 12200 nM |
| COc1c(C)c2c(c(O)c1C/C=C(\C)CCC(=O)O)C(=O)OC2 | Ramos | cell proliferation | blood cancer |  |  | IC50 | 41.7 nM |
| Cc1nn(-c2nc3ccc(Cl)c(Cl)c3[nH]2)c(O)c1C1OC(=O)c2ccccc21 (stereo not drawn) | RAW-ISG | CCK-8 |  | 3 µM |  | viability | 106% and 107% and 109% and 112% |
| Nc1ncc(-c2nc(N3CCOCC3)nc(N3CCOCC3)n2)c(C(F)F)n1 | 769-P |  |  | 72 h |  | GI50 | 267 nM |
| CN1CCc2[nH]c(-c3ccnc(NC(=O)[C@@H](CC(F)F)c4ccc(F)cc4)c3)c(Nc3ccccc3)c2C1=O | MOLM-13 | mRNA level, RNA-seq, refers to: PSAT1 |  | 200 nM, 24 h | reference: DMSO | log2 fold change | -3.27 |
| C/C=C(/C)C(=O)O[C@H]1C(C)=C2[C@H]([C@@H]1OC(=O)CCCCCCC)[C@@](C)(OC(C)=O)C[C@H](OC(=O)CCC)[C@@]1(O)[C@H]2OC(=O)[C@@]1(C)O | HEK293T | RNA-seq, refers to: TRIB3 mRNA |  | 10 µM, 6 h | reference: vehicle | log2 fold change | 3.37 |
| C=C1[C@@H](O)[C@@H]2O[C@]3(CC[C@H](/C=C/[C@@H](C)[C@@H]4CC(C)=C[C@@]5(O[C@H](C[C@@](C)(O)C(=O)O)CC[C@H]5O)O4)O3)CC[C@H]2O[C@@H]1[C@@H](O)C[C@H](C)[C@H]1O[C@@]2(CCCCO2)CC[C@H]1C | RPE-1 hTERT TP53-/- cells | cell viability |  |  |  | LD20 | 1.7 nM |

A few entries again:
| SMILES | cell line | assay | system | conditions | how to read | measurement | value |
| --- | --- | --- | --- | --- | --- | --- | --- |
| CC(C)[C@H](N)C(=O)N1CCC[C@H]1B(O)O | Ker-CT keratinocytes, CASP1 knockout | inducer, ELISA |  | concentration not given |  | IL-1β release | 7.41 pg/mL |
| CC(=O)O[C@H]1C[C@H](O[C@H]2[C@@H](O)C[C@H](O[C@H]3[C@@H](O)C[C@H](O[C@H]4CC[C@@]5(C)[C@H](CC[C@@H]6[C@@H]5C[C@@H](O)[C@]5(C)[C@@H](C7=CC(=O)OC7)CC[C@]65O)C4)O[C@@H]3C)O[C@@H]2C)O[C@H](C)[C@H]1O[C@@H]1O[C@H](CO)[C@@H](O)[C@H](O)[C@H]1O | human iPSC cardiomyocytes | plate-normalised |  | concentration not given, hit retest | reference: vehicle controls, SDs below control | MyBP-C level change | 12.9 SD |
| O=S(=O)(c1ccc(O)cc1)c1ccc(O)cc1 | HepG2 spheroids | Hoechst flow cytometry |  | 10 µM, 24 h |  | G1 phase cells | 72.8 ± 4.03% |
